Measured values gathered from unrelated publications.
UniProt Q9P2K8, sequence (whole entry, unmodified, looked up): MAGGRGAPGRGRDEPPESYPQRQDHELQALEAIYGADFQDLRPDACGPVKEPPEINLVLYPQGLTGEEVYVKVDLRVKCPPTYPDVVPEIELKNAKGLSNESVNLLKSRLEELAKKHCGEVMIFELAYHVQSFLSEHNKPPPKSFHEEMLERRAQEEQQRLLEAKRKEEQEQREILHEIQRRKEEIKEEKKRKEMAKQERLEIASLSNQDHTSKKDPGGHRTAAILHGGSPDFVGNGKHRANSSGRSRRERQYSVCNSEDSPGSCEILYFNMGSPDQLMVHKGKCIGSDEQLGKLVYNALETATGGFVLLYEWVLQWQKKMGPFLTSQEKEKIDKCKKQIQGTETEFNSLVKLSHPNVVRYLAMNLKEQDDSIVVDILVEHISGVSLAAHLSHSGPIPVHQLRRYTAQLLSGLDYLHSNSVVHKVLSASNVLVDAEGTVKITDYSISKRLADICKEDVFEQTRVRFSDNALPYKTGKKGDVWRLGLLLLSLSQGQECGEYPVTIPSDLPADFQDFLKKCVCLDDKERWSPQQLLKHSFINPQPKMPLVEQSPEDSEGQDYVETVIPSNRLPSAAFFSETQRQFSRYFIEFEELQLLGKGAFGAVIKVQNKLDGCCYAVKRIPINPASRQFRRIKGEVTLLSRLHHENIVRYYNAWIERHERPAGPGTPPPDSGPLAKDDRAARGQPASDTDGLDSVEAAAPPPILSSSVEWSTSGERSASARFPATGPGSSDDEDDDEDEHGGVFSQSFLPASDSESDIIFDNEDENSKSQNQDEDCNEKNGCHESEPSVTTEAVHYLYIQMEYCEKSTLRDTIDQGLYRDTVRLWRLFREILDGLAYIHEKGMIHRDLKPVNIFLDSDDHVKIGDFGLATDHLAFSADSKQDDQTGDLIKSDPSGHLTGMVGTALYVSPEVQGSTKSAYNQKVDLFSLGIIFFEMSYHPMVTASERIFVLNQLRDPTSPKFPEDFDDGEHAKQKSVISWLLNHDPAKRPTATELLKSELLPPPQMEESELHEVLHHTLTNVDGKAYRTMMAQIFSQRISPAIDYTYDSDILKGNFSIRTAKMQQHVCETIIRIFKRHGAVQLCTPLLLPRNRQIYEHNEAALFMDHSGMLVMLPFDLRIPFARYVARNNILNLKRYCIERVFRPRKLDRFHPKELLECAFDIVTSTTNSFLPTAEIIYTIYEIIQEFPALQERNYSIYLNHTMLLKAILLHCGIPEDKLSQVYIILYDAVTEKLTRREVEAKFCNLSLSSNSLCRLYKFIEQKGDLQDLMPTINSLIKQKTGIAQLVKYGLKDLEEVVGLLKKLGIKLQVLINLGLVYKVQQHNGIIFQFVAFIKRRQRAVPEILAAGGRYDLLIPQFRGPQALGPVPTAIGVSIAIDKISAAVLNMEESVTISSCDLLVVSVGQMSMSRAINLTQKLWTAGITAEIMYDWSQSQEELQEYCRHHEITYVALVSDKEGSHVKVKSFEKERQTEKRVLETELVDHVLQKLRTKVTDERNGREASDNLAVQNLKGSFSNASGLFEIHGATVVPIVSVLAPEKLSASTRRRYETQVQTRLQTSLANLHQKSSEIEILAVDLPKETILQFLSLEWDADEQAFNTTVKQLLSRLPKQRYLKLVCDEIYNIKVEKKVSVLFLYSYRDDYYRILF
UniProt Q9NYY3, sequence (whole entry, looked up): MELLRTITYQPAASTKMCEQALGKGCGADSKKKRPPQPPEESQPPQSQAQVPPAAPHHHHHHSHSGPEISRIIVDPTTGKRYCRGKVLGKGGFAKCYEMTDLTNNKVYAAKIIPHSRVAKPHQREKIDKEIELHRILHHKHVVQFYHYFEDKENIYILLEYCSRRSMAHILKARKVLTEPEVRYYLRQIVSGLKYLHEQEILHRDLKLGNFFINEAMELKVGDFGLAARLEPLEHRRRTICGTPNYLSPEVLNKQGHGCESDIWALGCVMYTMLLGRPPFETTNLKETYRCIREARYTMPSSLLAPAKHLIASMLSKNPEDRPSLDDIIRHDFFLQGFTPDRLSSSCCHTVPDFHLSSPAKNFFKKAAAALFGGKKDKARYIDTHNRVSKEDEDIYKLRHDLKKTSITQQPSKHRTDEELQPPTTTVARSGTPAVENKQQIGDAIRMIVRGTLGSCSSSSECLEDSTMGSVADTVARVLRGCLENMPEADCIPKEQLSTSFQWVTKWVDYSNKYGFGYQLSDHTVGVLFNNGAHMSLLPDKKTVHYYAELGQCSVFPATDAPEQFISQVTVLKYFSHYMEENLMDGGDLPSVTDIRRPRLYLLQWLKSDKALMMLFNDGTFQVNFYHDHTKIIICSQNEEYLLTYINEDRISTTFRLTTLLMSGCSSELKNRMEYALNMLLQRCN
UniProt Q9UEE5, sequence (whole entry, looked up): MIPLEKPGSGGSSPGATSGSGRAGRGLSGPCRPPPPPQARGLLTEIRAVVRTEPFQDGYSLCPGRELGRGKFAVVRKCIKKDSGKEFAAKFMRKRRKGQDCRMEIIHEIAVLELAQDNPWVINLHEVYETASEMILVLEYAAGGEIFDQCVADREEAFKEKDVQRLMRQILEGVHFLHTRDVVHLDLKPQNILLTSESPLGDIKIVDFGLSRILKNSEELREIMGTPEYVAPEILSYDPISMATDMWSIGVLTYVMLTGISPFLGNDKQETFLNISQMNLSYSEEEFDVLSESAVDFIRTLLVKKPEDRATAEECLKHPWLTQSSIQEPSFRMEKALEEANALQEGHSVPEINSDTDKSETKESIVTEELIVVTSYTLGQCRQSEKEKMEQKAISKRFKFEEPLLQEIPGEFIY

Structure (SMILES)	target or system	assay	system	conditions	quantity	value
CNc1ncc2c(/C=C/C(=O)N3CCC(OC)CC3)nn(Cc3cccc(C(F)(F)F)c3)c2n1	PLK2 (Homo sapiens, UniProt Q9NYY3)	enzyme activity, inhibitor, radiometric	–	1 µM	remaining activity	101%
CCOC(=O)[C@@]12C[C@@H]1[C@@H](n1ccc3c(NC)nc(C#Cc4ccc(Cl)s4)nc31)[C@H](O)[C@@H]2O	–	–	male Sprague-Dawley rat, plasma	intravenous, 0.5 mg/kg, 15 min	concentration	12.4 ng/mL
O=Cc1cc2c(cc1F)C(=O)N(C1CCC(=O)NC1=O)C2 (stereo not drawn)	–	–	male CD-1 mouse, plasma	intravenous, 1 mg/kg, 4.98 min	concentration	7.1 ng/mL
COc1cc(-c2cncc3c2CN(C)Cc2cc(N4CCNCC4)ccc2-3)cc(OC)c1OC	STK17A (Homo sapiens, UniProt Q9UEE5)	enzyme activity, inhibitor	–	1 µM	remaining activity	107%
Nc1ccn([C@@H]2O[C@H](CO)[C@@H](O)C2(F)F)c(=O)n1	MCF7	cell growth or viability, MTT	–	0.15625 µg/mL, 48 h	viability	90%
COc1ccc2c(=O)n(C)c(-c3ccccc3)nc2c1	–	–	male Sprague-Dawley rat, spleen	oral, 30 mg/kg, 15 min, single dose	concentration	82.8 ng/g
Cc1noc(C)c1Cn1cc(N2C(=O)CN(Cc3cccc(O)c3)C2=O)cn1	–	–	male Sprague-Dawley rat, plasma	oral, 10 mg/kg, 15 min	concentration	11.3 ng/mL
COc1cccc(-c2n[nH]c(SCc3ccccn3)n2)c1OC	–	–	female Sprague-Dawley rat, plasma	intravenous, 1 mg/kg, 4 h, single dose	concentration	43.9 ng/mL
O=c1nc(N2CCN(CC3CCCCC3)CC2)sc2c([N+](=O)[O-])cc(C(F)(F)F)cc12	–	–	CD-1 mouse, plasma	oral, 100 mg/kg, 24 h	concentration	2.65 ng/mL
CCc1cc(-c2noc(-c3cc(OC)nc(C4CCCC4)c3)n2)cc(C)c1OC[C@@H](O)CO	–	–	Wistar rat, plasma	oral, 0.1 mg/kg, 24 h, single dose	concentration	1.5 ng/mL
C=CC(=O)N1CCC(COCC(=O)N2CCN(c3nc(-c4cnc(N)nc4C(F)F)nc(N4CCOC[C@@H]4C)n3)CC2)CC1	eIF-2-alpha kinase GCN2, C-terminal kinase domain (EIF2AK4, Homo sapiens, UniProt Q9P2K8, S808G)	binding, competition with immobilised ligand	–	1 µM	remaining binding	100%
NCc1cc2c(cc1F)C(=O)N(C1CCC(=O)NC1=O)C2 (stereo not drawn)	–	–	male cynomolgus monkey, plasma	oral, 0.3 mg/kg, 1 h	concentration	1.02 ng/mL

A few entries again:
Structure (SMILES)	target or system	assay	system	conditions	quantity	value
O=c1nc(N2CCN(CC3CCCCC3)CC2)sc2c([N+](=O)[O-])cc(C(F)(F)F)cc12	–	–	CD-1 mouse, plasma	oral, 100 mg/kg, 24 h	concentration	2.65 ng/mL
